Published values pooled from the literature.
Each numbered part is a random draw from the data of one study; scales do not carry over between parts. Positions count from the first letter of the parent shown.

Series 1
Target: Ras GTPase-activating protein-binding protein 1, C-terminal RGG region (G3BP1, Homo sapiens, UniProt Q13283)
Sequence of UniProt Q13283 (whole entry, looked up): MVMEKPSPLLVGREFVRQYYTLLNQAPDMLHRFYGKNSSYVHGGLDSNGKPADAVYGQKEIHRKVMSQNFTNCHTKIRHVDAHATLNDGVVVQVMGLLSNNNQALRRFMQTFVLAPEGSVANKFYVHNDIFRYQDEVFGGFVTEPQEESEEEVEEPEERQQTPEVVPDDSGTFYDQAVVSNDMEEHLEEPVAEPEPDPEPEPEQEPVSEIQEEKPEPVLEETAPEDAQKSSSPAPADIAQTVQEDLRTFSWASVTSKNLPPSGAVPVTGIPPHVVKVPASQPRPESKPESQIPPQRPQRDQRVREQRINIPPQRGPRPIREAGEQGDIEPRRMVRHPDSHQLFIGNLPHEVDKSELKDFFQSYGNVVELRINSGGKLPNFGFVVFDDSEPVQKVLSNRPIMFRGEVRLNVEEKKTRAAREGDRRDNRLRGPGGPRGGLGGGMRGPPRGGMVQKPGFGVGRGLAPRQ
Technique: RNA Bind-n-Seq
Form: RNA
Medium: in vitro
Concentration: 1 µM
Setting: whole 134-nt RNA, ends assumed
With: 150 mM KCl
Relative to: input library
Reading: higher = stronger binding
Constant ends, left off below: GGGAGUUCUACAGUCCGACGAUC … UGGAAUUCUCGGGUGUCAAGG
Oligonucleotide | log2 enrichment
ACCAUGCAGGUGGGCAUCUUUGGGGAGUGGGGCAAGGGGGGGAUAGGGAGGGGGGUAACACUUUGGGAACAGGUGGUCCCAGGUCGUUUC | -1.09
CCUGUGCUACACAUCGUAUGUACCGAAUCAAAUUUUUUUAAAUUUUUUUAAAUUUUUAAAAAAGUAUUAUGUUACGCCGUUCGGAUCUGC | -2.66
GUCCUGUGCUACACAUCGUAUGUACCGAAUCAAAUUUUUAAACCCCCCCAAACCCAAAAAAGUAUUAUGUUACGCCGUUCGGAUCUGCAC | -0.73
UGGGAGGUGGAUUUUGUUUAUUUUUUUAGCUCAUUUCCAGGGGUGGGAAUUUUUUUUUAAUAUGUGUCUUGAAUAAAGUUGUUUUUGAAA | 3.97
GCAGGAAGUAAAAACAAAUGGAAAUGCUUCGGAUAAAGGCAGGGGUGGGGGUUGCUAAGGAAAGGGUGGGAUGGGAGUGGGUAAAGAGUU | 1.95

Series 2
Target: Histone acetyltransferase KAT6A, both winged helices, GST fusion (KAT6A, Homo sapiens, UniProt Q92794, residues 1-181)
Technique: protein binding microarray
Form: double-stranded DNA, one strand shown
Medium: in vitro
Concentration: not given
Setting: 8-mer, flanks averaged, mean of 2 arrays, mostly near background
Relative to: not given
Reading: higher = stronger binding
Residues (chain): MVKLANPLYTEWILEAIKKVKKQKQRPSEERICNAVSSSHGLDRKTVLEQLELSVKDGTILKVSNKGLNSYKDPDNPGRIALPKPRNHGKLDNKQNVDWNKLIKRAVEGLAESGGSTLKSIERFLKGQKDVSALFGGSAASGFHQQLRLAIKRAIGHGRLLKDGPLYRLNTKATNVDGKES
Oligonucleotide | E-score
CGGTAACG | 0.257
CCTCGAGG | -0.193
CAATCAAC | 0.0428
ATGATGAA | -0.13
AAGCGCCC | 0.275
TATGAAGA | -0.136

Series 3
Target: CCNE2, cyclin fold, Cln2 fusion (human)
Technique: yeast growth competition, sequencing
Medium: yeast
Setting: strong parent motif
Relative to: not given
Reading: higher = stronger binding
Starting sequence: CDC25A docking peptide (human); PPHRRRLLFACSP
Substitution | normalised enrichment score
PPHRRRLLFACFP [S12F] | 1.65
PPHRRRLLFPCSP [A10P] | 2.37
EPHRRRLLFACSP [P1E] | 3.74
PPHRRRLLFACSC [P13C] | 2.26
PPHRRRLLFACHP [S12H] | 1.52
PPHRRRLWFACSP [L8W] | 1.57

Mixed results
Molecule | target | test | test system | conditions | how to read | measurement | value
PhoQ, residues 284 288 289 292 302 303 TASMAF | PhoP, residues 12 14 15 18 19 STHWV (Escherichia coli, UniProt P23836) | Sort-seq, refers to: YFP reporter | E. coli | PhoQ-PhoP variant library, with: 10 µM Mg2+ | relative to: high Mg2+ state, higher = stronger signaling | fold induction | 19.2

Excerpt of the above (series 1):
Oligonucleotide | log2 enrichment
CCUGUGCUACACAUCGUAUGUACCGAAUCAAAUUUUUUUAAAUUUUUUUAAAUUUUUAAAAAAGUAUUAUGUUACGCCGUUCGGAUCUGC | -2.66
UGGGAGGUGGAUUUUGUUUAUUUUUUUAGCUCAUUUCCAGGGGUGGGAAUUUUUUUUUAAUAUGUGUCUUGAAUAAAGUUGUUUUUGAAA | 3.97
GUCCUGUGCUACACAUCGUAUGUACCGAAUCAAAUUUUUAAACCCCCCCAAACCCAAAAAAGUAUUAUGUUACGCCGUUCGGAUCUGCAC | -0.73
